{"data": "Results pooled from the literature", "note": "Numbered parts are unrelated; each lists some results of a single study. Several values in a cell are separate wells, animals, samples, runs or records.", "sequence of UniProt Q9Y2U5 (whole entry, looked up)": "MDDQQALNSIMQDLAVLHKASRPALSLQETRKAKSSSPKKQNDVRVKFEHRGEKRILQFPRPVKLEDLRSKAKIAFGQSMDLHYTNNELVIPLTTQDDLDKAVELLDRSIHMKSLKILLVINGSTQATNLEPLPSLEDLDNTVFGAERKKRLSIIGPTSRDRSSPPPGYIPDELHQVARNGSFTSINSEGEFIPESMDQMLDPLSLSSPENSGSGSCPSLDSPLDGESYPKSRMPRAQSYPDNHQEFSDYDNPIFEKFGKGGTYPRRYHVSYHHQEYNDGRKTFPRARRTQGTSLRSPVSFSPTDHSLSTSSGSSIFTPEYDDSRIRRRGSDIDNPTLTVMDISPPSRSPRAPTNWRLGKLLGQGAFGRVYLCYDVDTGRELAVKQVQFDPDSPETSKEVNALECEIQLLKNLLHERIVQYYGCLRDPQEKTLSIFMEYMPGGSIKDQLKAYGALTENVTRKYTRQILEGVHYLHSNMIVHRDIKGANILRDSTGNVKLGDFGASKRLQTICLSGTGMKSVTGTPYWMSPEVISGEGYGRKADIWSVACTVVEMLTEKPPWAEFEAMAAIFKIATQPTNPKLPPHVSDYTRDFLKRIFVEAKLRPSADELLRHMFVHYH", "sequence of UniProt O43283 (whole entry, looked up)": "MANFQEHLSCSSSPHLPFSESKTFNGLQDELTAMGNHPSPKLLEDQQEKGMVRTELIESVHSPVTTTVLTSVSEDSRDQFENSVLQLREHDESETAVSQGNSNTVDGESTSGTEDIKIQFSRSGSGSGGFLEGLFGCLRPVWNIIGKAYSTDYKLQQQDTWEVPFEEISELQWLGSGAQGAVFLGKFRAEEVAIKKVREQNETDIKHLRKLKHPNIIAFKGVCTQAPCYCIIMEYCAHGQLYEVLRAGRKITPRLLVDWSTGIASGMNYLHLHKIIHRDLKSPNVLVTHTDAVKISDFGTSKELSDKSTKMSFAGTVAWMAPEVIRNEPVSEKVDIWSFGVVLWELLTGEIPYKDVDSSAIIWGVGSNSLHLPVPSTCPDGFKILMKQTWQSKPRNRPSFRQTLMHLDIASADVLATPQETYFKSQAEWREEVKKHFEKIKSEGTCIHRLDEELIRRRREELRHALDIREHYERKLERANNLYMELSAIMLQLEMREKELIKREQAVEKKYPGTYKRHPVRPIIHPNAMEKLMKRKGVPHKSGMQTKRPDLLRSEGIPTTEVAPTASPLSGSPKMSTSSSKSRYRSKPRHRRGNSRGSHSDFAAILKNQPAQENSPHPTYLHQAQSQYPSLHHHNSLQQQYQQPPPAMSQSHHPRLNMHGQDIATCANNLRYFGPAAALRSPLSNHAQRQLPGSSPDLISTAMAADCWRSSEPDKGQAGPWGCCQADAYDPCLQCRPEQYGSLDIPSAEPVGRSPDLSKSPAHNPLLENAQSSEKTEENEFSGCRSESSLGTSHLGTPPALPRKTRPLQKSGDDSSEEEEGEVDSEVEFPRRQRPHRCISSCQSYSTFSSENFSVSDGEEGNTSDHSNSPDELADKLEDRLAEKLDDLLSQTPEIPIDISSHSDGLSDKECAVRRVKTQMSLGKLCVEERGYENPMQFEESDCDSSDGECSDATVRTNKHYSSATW", "sequence of UniProt Q9UHD2 (whole entry, looked up)": "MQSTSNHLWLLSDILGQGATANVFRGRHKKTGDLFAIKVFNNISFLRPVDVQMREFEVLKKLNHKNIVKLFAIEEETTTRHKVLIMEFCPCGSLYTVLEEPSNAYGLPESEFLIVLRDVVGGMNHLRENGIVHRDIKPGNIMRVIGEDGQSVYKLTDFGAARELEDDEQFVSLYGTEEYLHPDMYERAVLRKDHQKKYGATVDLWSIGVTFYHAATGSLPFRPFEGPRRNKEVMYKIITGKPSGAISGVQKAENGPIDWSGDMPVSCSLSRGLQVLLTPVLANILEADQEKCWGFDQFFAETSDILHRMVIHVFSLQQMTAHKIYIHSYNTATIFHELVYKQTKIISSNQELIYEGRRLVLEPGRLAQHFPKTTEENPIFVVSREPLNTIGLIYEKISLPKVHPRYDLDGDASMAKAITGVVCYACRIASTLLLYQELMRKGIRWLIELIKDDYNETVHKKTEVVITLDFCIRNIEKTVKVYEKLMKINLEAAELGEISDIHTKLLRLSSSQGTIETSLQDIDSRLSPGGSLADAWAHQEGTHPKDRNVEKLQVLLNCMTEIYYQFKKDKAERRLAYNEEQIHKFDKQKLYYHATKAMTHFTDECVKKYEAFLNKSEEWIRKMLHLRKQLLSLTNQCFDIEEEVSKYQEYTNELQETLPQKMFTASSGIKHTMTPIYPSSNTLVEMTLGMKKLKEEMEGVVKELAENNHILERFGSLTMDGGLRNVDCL", "sequence of UniProt Q13188 (whole entry, looked up)": "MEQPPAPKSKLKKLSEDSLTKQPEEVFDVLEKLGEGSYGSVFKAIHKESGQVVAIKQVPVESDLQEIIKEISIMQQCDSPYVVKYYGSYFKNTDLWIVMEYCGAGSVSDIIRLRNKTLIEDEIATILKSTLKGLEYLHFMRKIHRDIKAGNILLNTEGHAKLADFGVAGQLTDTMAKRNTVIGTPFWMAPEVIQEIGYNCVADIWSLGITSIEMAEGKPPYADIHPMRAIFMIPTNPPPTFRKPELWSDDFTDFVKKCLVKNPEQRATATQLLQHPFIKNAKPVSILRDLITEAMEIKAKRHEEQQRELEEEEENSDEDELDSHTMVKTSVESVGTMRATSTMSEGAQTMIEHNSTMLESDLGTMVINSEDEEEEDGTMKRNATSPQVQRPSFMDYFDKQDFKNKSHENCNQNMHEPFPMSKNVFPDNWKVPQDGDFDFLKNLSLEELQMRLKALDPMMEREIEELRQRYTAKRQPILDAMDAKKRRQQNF", "sequence of UniProt O15197 (whole entry, looked up)": "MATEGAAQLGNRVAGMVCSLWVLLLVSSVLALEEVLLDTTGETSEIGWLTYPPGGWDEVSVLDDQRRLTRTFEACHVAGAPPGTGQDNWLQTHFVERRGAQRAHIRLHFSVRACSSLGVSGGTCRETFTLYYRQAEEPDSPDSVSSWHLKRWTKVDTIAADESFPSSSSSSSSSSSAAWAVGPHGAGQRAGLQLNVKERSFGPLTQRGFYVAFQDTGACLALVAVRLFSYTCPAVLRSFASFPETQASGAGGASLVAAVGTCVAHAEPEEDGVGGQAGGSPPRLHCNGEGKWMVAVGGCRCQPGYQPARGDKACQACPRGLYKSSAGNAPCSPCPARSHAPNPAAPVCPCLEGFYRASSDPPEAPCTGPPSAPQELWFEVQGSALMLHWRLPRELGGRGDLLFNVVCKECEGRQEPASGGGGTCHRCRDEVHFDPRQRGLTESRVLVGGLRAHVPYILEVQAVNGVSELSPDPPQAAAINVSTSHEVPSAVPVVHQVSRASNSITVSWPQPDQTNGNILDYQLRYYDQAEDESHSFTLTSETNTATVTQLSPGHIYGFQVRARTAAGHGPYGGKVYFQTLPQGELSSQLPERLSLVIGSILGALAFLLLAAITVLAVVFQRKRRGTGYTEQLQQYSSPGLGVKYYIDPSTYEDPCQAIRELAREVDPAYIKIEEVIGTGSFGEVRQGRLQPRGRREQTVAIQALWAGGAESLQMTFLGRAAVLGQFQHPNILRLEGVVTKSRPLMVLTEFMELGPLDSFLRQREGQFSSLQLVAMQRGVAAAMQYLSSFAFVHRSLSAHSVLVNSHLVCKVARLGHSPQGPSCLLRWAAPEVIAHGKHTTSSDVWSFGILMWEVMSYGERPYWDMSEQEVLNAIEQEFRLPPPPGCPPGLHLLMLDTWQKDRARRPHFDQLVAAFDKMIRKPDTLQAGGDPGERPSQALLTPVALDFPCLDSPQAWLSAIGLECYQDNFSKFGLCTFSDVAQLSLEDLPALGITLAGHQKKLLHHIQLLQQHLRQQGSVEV"}
{"data": "Study 1", "cell line": "mouse MPNST tumor cells", "technique": "high-content immunofluorescence imaging", "refers to": "nuclear SOX9", "tested at": "10 µM", "time": "12 h", "setting": "mean of 2 replicates", "baseline": "DMSO control", "reading": "higher = more nuclear SOX9"}
{"SMILES": "O=C(CCNNC(=O)c1ccncc1)NCc1ccccc1", "nuclear SOX9 intensity": "91.9 % of DMSO"}
{"SMILES": "CC(=O)O[C@H]1C(=O)[C@@]2(C)[C@H]([C@H](OC(=O)c3ccccc3)[C@]3(O)C[C@H](OC(=O)[C@H](O)[C@@H](NC(=O)c4ccccc4)c4ccccc4)C(C)=C1C3(C)C)[C@]1(OC(C)=O)CO[C@@H]1C[C@@H]2O", "nuclear SOX9 intensity": "137 % of DMSO and 171 % of DMSO"}
{"SMILES": "C=CC1=C(C)c2cc3nc(cc4[nH]c(cc5[nH]c(cc1n2)c(C)c5CCC(=O)O)c(CCC(=O)OC)c4C)C1(C)C3=CC=C(C(=O)OC)C1C(=O)OC (stereo not shown)", "nuclear SOX9 intensity": "89.3 % of DMSO"}
{"SMILES": "CCC(F)(F)c1cc(N2CCC(S(C)(=O)=O)CC2)nc2sc(C(N)=O)c(N)c12", "nuclear SOX9 intensity": "118 % of DMSO"}
{"SMILES": "Cc1cc(=O)oc2cc(O)ccc12", "nuclear SOX9 intensity": "85.1 % of DMSO"}
{"SMILES": "CC(C)(C)c1ccc(C(=O)Nc2cn3cc(-n4ccnc4)ccc3n2)cc1", "nuclear SOX9 intensity": "107 % of DMSO"}
{"SMILES": "Cc1ccccc1C(OCCN(C)C)c1ccccc1 (stereo not shown)", "nuclear SOX9 intensity": "138 % of DMSO"}
{"SMILES": "CC(C)(C)NC[C@H](O)COc1nsnc1N1CCOCC1", "nuclear SOX9 intensity": "113 % of DMSO"}
{"SMILES": "NC12CC3CC(CC(C3)C1)C2", "nuclear SOX9 intensity": "93 % of DMSO and 86 % of DMSO"}
{"SMILES": "C#C[C@]1(O)CC[C@H]2[C@@H]3CCC4=CC(=O)CC[C@@H]4[C@H]3CC[C@@]21CC", "nuclear SOX9 intensity": "80 % of DMSO"}
{"data": "Study 2", "Compound": "FC(F)(F)c1ccc2c(c1)nc(-c1cccnc1)n2C1CC1", "read-out": "cell-free assay", "technique": "competition with immobilised ligand", "tested at": "1 µM"}
{"target": "TBK1 (Homo sapiens, UniProt Q9UHD2)", "remaining binding": "82%"}
{"target": "CDK8 (Homo sapiens, UniProt P49336)", "remaining binding": "100%"}
{"target": "TSSK3 (Homo sapiens, UniProt Q96PN8)", "remaining binding": "65%"}
{"target": "STK25 (Homo sapiens, UniProt O00506)", "remaining binding": "99%"}
{"target": "ULK3 (Homo sapiens, UniProt Q6PHR2)", "remaining binding": "100%"}
{"target": "EPHA3 (Homo sapiens, UniProt P29320)", "remaining binding": "100%"}
{"target": "PIK3CA (Homo sapiens, UniProt P42336)", "remaining binding": "100%"}
{"target": "CDK16 (Homo sapiens, UniProt Q00536)", "remaining binding": "100%"}
{"target": "COQ8B (Homo sapiens, UniProt Q96D53)", "remaining binding": "100%"}
{"target": "MAP3K13 (Homo sapiens, UniProt O43283)", "remaining binding": "100%"}
{"target": "Tyrosine-protein kinase ABL1, non-phosphorylated (ABL1, Homo sapiens, UniProt P00519, Q252H)", "remaining binding": "81%"}
{"target": "RET (Homo sapiens, UniProt P07949)", "remaining binding": "99%"}
{"target": "Tyrosine-protein kinase ABL1, phosphorylated (ABL1, Homo sapiens, UniProt P00519, F317L)", "remaining binding": "100%"}
{"target": "MAP3K2 (Homo sapiens, UniProt Q9Y2U5)", "remaining binding": "100%"}
{"data": "Study 3", "target": "Activated CDC42 kinase 1 (TNK2, Homo sapiens, UniProt Q07912)", "read-out": "enzyme activity", "mode": "inhibitor", "tested at": "0.5 µM", "baseline": "control", "sequence of UniProt Q07912 (whole entry, looked up)": "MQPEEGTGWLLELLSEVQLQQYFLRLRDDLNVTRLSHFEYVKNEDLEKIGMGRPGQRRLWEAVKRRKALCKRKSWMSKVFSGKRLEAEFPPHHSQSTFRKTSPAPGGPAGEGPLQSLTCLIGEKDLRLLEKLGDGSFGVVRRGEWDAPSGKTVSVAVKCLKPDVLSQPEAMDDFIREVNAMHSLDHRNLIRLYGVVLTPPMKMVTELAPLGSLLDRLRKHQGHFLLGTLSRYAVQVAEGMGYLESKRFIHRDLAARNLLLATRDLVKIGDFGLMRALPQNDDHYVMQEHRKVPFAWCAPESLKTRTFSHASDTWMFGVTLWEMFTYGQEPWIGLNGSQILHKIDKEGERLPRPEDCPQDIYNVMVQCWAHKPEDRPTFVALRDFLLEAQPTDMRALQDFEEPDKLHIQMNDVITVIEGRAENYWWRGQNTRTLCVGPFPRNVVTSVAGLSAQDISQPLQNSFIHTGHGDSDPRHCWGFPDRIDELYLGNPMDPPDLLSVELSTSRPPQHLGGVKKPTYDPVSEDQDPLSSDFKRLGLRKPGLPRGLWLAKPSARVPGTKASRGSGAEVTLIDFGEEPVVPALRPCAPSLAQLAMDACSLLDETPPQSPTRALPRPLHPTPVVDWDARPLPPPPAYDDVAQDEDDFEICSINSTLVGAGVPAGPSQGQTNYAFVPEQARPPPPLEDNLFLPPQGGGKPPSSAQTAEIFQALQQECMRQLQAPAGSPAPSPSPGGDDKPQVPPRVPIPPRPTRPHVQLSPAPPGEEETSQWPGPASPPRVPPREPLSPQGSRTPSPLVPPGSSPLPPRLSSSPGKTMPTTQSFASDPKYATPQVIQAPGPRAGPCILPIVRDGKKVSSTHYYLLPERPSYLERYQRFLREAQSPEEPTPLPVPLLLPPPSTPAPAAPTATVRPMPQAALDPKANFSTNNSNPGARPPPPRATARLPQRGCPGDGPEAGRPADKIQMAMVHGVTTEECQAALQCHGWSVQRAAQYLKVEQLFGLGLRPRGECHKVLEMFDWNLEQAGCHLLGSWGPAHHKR"}
{"SMILES": "Cc1nc2cc3nc(-c4cccs4)cnc3cc2n1C", "remaining activity [%]": 100}
{"SMILES": "CN(C)C[C@H]1CCn2c(c(C3=C(c4cn(C)c5ccccc45)C(=O)NC3=O)c3ccccc32)C1", "remaining activity [%]": 96.3}
{"SMILES": "Cc1cn(-c2cc(NC(=O)c3ccc(C)c(Nc4nccc(-c5cccnc5)n4)c3)cc(C(F)(F)F)c2)cn1", "remaining activity [%]": 82.6}
{"SMILES": "CCN(CC)CCNC(=O)c1c(C)[nH]c(/C=C2\\C(=O)Nc3ccc(F)cc32)c1C", "remaining activity [%]": 64.1}
{"SMILES": "Nc1cccc(-c2cc3c(Oc4cccc(O)c4)ncnc3[nH]2)c1", "remaining activity [%]": 19.6}
{"SMILES": "CCN(CC)CCNC(=O)c1c(C)[nH]c(/C=C2\\C(=O)Nc3ccc(Cl)cc32)c1C", "remaining activity [%]": 22.6}
{"SMILES": "C[C@@H]1CCN(C(=O)CC#N)C[C@@H]1N(C)c1ncnc2[nH]ccc12", "remaining activity [%]": 87.1}
{"SMILES": "CCN(CC)C(=O)c1ccc(Nc2nc(OCC3CCCCC3)c3[nH]cnc3n2)cc1", "remaining activity [%]": 21.4}
{"SMILES": "Cc1cc2ncc(-c3ccccc3)nc2cc1C", "remaining activity [%]": 98.4}
{"SMILES": "O=c1cc(-c2cccc3c2Sc2ccccc2S3)oc(N2CCOCC2)c1", "remaining activity [%]": 95.7}
{"SMILES": "c1ccc(-c2[nH]ncc2-c2ccnc3ccccc23)nc1", "remaining activity [%]": 96.2}
{"SMILES": "O=C(Nc1cccc(Nc2nccc(Nc3cccc(C(F)(F)F)c3)n2)c1)C1CC1", "remaining activity [%]": 66.5}
{"SMILES": "Cn1nc2c3c(cccc31)C(=O)c1ccccc1-2", "remaining activity [%]": 83.3}
{"SMILES": "Ic1cccc(CSc2nnc(-c3ccncc3)o2)c1", "remaining activity [%]": 101}
{"SMILES": "COc1cc2ncnc(Nc3ccc(O)c(Br)c3)c2cc1OC", "remaining activity [%]": 10.5}
{"data": "Study 4", "SMILES": "COc1ccc2[nH]c3c4[nH]c5ccc(OC)cc5c4c4c(c3c2c1)C(=O)NC4=O", "technique": "competitive binding panel", "tested at": "1 µM", "baseline": "vehicle"}
{"target": "STK3 (Homo sapiens, UniProt Q13188)", "refers to": "MST2", "remaining binding": "82%"}
{"target": "EPHB6 (Homo sapiens, UniProt O15197)", "remaining binding": "7.3%"}
{"target": "MAP2K2 (Homo sapiens, UniProt P36507)", "refers to": "MEK2", "remaining binding": "59%"}
{"target": "TESK1 (Homo sapiens, UniProt Q15569)", "remaining binding": "90%"}
{"note": "Some of these lines once more (study 3):"}
{"SMILES": "Cc1cn(-c2cc(NC(=O)c3ccc(C)c(Nc4nccc(-c5cccnc5)n4)c3)cc(C(F)(F)F)c2)cn1", "remaining activity [%]": 82.6}
{"SMILES": "CCN(CC)CCNC(=O)c1c(C)[nH]c(/C=C2\\C(=O)Nc3ccc(F)cc32)c1C", "remaining activity [%]": 64.1}
{"SMILES": "Nc1cccc(-c2cc3c(Oc4cccc(O)c4)ncnc3[nH]2)c1", "remaining activity [%]": 19.6}
{"SMILES": "CCN(CC)CCNC(=O)c1c(C)[nH]c(/C=C2\\C(=O)Nc3ccc(Cl)cc32)c1C", "remaining activity [%]": 22.6}
{"SMILES": "C[C@@H]1CCN(C(=O)CC#N)C[C@@H]1N(C)c1ncnc2[nH]ccc12", "remaining activity [%]": 87.1}
